Measured values from different studies.
Protocols differ between the studies behind these lines. ± gives the spread as reported.

CC(C)C[C@H](NC(=O)[C@H](Cc1ccccc1)NC(=O)CNC(=O)C/C=C(\F)[C@@H](N)Cc1ccc(O)cc1)C(=O)O — remaining compound (mouse plasma; 50 µM, 4 h, 37 °C): > 90%
CCN(CC)c1ccc2c(-c3ccccc3C(=O)OCCC[18F])c3ccc(=[N+](CC)CC)cc-3oc2c1 — remaining compound (mouse, rat and human serum; 2 h, 37 °C): > 95%
C[C@@H]1NC(=O)[C@H](CC(N)=O)N2C[C@H](Cc3c[nH]c4ccccc34)NC(=O)[C@H](CSCC2=O)NC(=O)[C@H](CCCNC(=N)N)NC(=O)[C@@H](Cc2ccccc2)NC(=O)[C@H](Cc2c[nH]cn2)NC(=O)[C@@H](NC(=O)[C@@H](N)Cc2ccc(O)cc2)CSSC[C@@H](C(=O)N[C@@H](Cc2ccc(O)cc2)C(N)=O)NC(=O)[C@H](Cc2ccccc2)NC1=O — remaining compound (LC-MS; rat serum; 10 µM, 24 h, 37 °C): ~12%
CCOC(=O)[C@@H]1Cc2c(cc([N+](=O)[O-])cc2[N+](=O)[O-])[C@H](O)[C@]12C(=O)Nc1ccc(Br)cc12 — remaining compound (human liver microsomes; 10 min, 37 °C): > 90%
C[C@H](NCc1ccc(-c2ccc(C(F)(F)F)cc2)cc1)C(N)=O — remaining compound (human plasma; 1 µM, 120 min): 98%
CCc1noc(CC)c1C(=O)O[C@H]1C(C)=C[C@]23C(=O)[C@@H](C=C(CO)[C@@H](O)[C@]12O)[C@H]1[C@@H](C[C@H]3C)C1(C)C — remaining compound (phosphate buffer 30% acetonitrile; 100 µM, 24 h, pH 7.4, 37 °C): ~73%
CSCC[C@H](NC(=O)CNC(=O)[C@H](CC(=O)O)NC(=O)[C@@H](NC(=O)[C@@H](NC(=O)[C@@H](NC(=O)CNC(=O)[C@H](CCC(=O)O)NC(=O)[C@H](CCSC)NC(=O)[C@H](CC(=O)O)NC(=O)[C@H](C)NC(=O)[C@H](C)NC(=O)[C@@H](NC(=O)[C@H](CO)NC(=O)[C@@H](N)CC(C)C)[C@@H](C)O)C(C)C)C(C)C)[C@@H](C)O)C(=O)N[C@@H](C)C(=O)N[C@@H](CO)C(=O)NCC(=O)N[C@@H](CC(C)C)C(=O)N[C@@H](CC(=O)O)C(=O)N[C@@H](CCCCN)C(=O)N[C@@H](CC(=O)O)C(=O)N[C@@H](Cc1ccc(O)cc1)C(=O)N[C@@H](CC(C)C)C(=O)N[C@@H](CCCCN)C(=O)N1CCC[C@H]1C(=O)N[C@@H](CC(=O)O)C(=O)N[C@@H](CC(=O)O)C(=O)O — remaining compound (LC-MS/MS; monkey serum; 10 µg/mL, 24 h, 37 °C): 45%
CC[C@@H](C)[C@@H]1NC(=O)[C@@H](Cc2ccccc2)NC(=O)[C@@H]2CCCN2C(=O)[C@H]([C@H](C)CC)NC(=O)[C@@H](Cc2ccccc2)NC(=O)[C@@H]2CCCN2C1=O — remaining compound (human plasma; 2 h, 37 °C): ≥ 90%
C[C@H](CCC(=O)N[C@@H](CCCCNC(=O)C(F)(F)F)C(=O)O)[C@H]1CC[C@H]2[C@@H]3[C@H](O)C[C@@H]4C[C@H](O)CC[C@]4(C)[C@H]3C[C@H](O)[C@]12C — remaining compound (hASBT-MDCK cell homogenate; 5 µM, 10 min): 102%
Cc1cnc(-c2ncn3c(=O)n(C)nnc23)o1 — remaining compound (PBS; 50 µM, 2 h, pH 7.4, no microsomes; baseline: time zero): 95 ± 4%
CC(C)C[C@H](NC(=O)[C@@H]1CCCN1C(=O)[C@H](Cc1ccc(F)cc1)NC(=O)CNC(=O)[C@@H](C)NC(=O)[C@@H](N)Cc1ccc(O)cc1)C(=O)N[C@@H](Cc1c[nH]c2ccccc12)C(=O)NCc1cc(C(F)(F)F)cc(C(F)(F)F)c1 — remaining compound (rat plasma; 0 h, 37 °C): 100%
CC(C)[C@@H]1NC(=O)CNC(=O)[C@H](CC(N)=O)NC(=O)[C@H](CCCNC(=N)N)NC(=O)[C@H](Cc2ccc(O)cc2)NC(=O)[C@H](C(C)C)NC(=O)[C@@H](NC(=O)[C@@H](NC(=O)[C@H](CC(N)=O)NC(=O)[C@H](Cc2c[nH]c3ccccc23)NC(=O)[C@H](C)NC(=O)[C@H](Cc2ccccc2)NC(=O)CNC(=O)[C@H](CCCCN)NC(=O)[C@H](Cc2ccccc2)NC(=O)[C@H](Cc2ccccc2)NC(=O)[C@H](CCCCN)NC(=O)OCC2c3ccccc3-c3ccccc32)C(C)C)CSSC[C@@H](C(=O)N[C@@H](Cc2c[nH]cn2)C(=O)N[C@@H](CCCNC(=N)N)C(=O)N[C@@H](CCCNC(=N)N)C(=O)N[C@@H](C)C(=O)N[C@@H](CC(N)=O)C(N)=O)NC(=O)[C@H](C(C)C)NC(=O)[C@H](CCCNC(=N)N)NC1=O — remaining compound (HPLC; mouse liver homogenate; concentration not given, 8 h): 37.7%
CC[C@H](C)[C@@H]1NC(=O)[C@H](CC(N)=O)NC(=O)[C@@H]2CCCN2C(=O)[C@@H](NC(=O)[C@H](CC(N)=O)NC(=O)[C@@H](N)CCC(N)=O)COC(=O)[C@H](CCSC)NC(=O)[C@H](Cc2c[nH]c3ccccc23)NC(=O)[C@H](CCC(N)=O)NC(=O)CNC(=O)[C@H](Cc2ccccc2)N(C)C1=O — remaining compound (human plasma diluted with PBS; 0.28 mM, 30 min, pH 7.2, 37 °C): ~30%
CC(=O)c1ncn2c(=O)n(C)nnc12 — remaining compound (PBS; 50 µM, 2 h, pH 7.4, no microsomes; baseline: time zero): 77 ± 3%
CCCC[C@H](NC(=O)[C@H](Cc1ccccc1)NC(=O)CNC(=O)[C@@H](C)NC(=O)[C@@H](N)Cc1ccc(O)cc1)C(=O)N1CCC[C@H]1C(=O)N[C@@H](CC(C)C)C(=O)N[C@@H](CO[C@@H]1O[C@H](CO)[C@@H](O)[C@H](O)[C@H]1O)C(=O)N[C@@H](Cc1c[nH]c2ccccc12)C(=O)NCc1cc(C(F)(F)F)cc(C(F)(F)F)c1 — remaining compound (rat plasma; 24 h, 37 °C): 70%
NC(=O)c1c(F)ccc(OCc2nc3cc(Cl)cnc3s2)c1F — remaining compound (mouse plasma; 10 µM, 24 h, 37 °C): 94 ± 10.8%

For quick reference, copied from above:
C[C@H](NCc1ccc(-c2ccc(C(F)(F)F)cc2)cc1)C(N)=O — remaining compound (human plasma; 1 µM, 120 min): 98%
